Assay results from different studies.
Every numbered part comes from another study and shows a few of its results, in no order. Changes are numbered by the printed parent chain.

Study 1
Target: Histone acetyltransferase KAT6A, winged helix 1, GST fusion (KAT6A, Homo sapiens, UniProt Q92794, residues 1-85)
Method: protein binding microarray
Molecule type: double-stranded DNA, one strand shown
Medium: in vitro
Concentration: not given
Setting: 8-mer, flanks averaged, mean of 2 arrays, mostly near background
Relative to: not given
Direction: higher = stronger binding
Measurement: E-score
Residues (chain): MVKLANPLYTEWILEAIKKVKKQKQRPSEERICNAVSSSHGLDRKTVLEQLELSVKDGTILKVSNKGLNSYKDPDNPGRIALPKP
ATTCGCAG: -0.00851
CTTCTAGA: -0.0894
CGCGTTAG: 0.358
ATGAAACC: -0.013
ACAGAAAT: -0.218
CGTAGACG: 0.175
AGAACGTG: 0.0174
AGGAAATC: -0.121
AAGAATCT: -0.0752
ATTCTAAC: -0.217
ACCTTGCC: 0.0672
AGTGGGAG: -0.276
GCTGTGAA: -0.00303
CAGGGGGA: -0.155
GTAACACA: 0.0332
CGTTACAG: -0.0533
ACTGCGAG: -0.0997
CATTAGCC: 0.000915
CTTAAGTA: -0.0589
CATTACAA: -0.0407
GGATTGGA: -0.226
GCGCGAAA: 0.204
GATAATAC: -0.156
AGCCGCGG: 0.463

Study 2
Target: RNA binding protein fox-1 homolog 2, RRM domain, GST-SBP tag (RBFOX2, Homo sapiens, UniProt O43251-10, residues 100-194)
Method: RNA Bind-n-Seq
Molecule type: RNA
Medium: in vitro
Concentration: 365 nM
Setting: natural RNA segment, single round, ends assumed
Relative to: no-protein control
Direction: higher = stronger binding
Measurement: RBNS enrichment (R)
Target sequence (chain): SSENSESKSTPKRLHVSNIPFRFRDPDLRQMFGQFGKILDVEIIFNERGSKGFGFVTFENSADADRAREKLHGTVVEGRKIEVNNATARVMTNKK
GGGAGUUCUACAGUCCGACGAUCUAAAUUCCCAGAAAUUCAGUGUUUAGACGAGGGAAUUUAAUUCCUAUUUUGUCCAUGUUGGUGAUGUACUGUACUUCCCUUCCUUUUCUCUGCAUCCCCCAUCACCUCAUUGGAAUUCUCGGGUGCCAA: 2.77
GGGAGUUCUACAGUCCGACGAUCAUUCAAACCUUCCGGGGCUGUGACCUUCAAAGCUGUGUAAAUCAGUGUCAAGCACAUUAUAGUGUUUGCCCUCACAGGAAAAAAAAAAAAGUCCCCUGUUCUGAAAACAGUGGAAUUCUCGGGUGCCAA: 0.279
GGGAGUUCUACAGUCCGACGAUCCUUAGAGUCAGUGAAGUUCUUGUGAUGUUUGUUAUGCUUGUAGAUUUUGGCAACUUGUAAAUAAUGUGUAUACCAAGUUUUUAUGAUUAAGGAAUCAAAUUUAUUGAAUUUGGAAUUCUCGGGUGCCAA: 1.38
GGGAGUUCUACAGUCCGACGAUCUUCUCUCUAUCUGGAAUUUAAUUAAUCGAAAUGAAUUUAUCUGAAUAUAGGAAGCAUAUGCCUACUUGUAAUUUCUAACUCCUUAUGUUUGAAGAGAAACCUCCGGUGUGUGGAAUUCUCGGGUGCCAA: 0.615
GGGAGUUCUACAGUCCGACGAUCUCCCGAUGCAUGGGAUCCAGUGCCCUCUUCUGAUCUCUAUGGGCAUCAGGCAUGCACACAGUACACUUAUAUACAUGCAGAAAAAAAUACUGAGACACAUGAAAUAAGAUUGGAAUUCUCGGGUGCCAA: 6.29
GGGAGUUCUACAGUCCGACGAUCAGGAAAGAAUUACAGUUGGACUGAUUGUGACAGUGCCUUGUCGUCCUCUUUGAAACACCCCGUGUUGUCCAGUAUACCUUAUAACACUGAGCCACUUCUCCCCACCCUCCUGGAAUUCUCGGGUGCCAA: 0.933
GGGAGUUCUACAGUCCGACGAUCUGCACGCAUGUGUGUGUGUGCACGCACUGGGCUGGGCCAAGCGACUGAGGAUUCGCUUGGGAACGGGCAGGUGGUAGUAGGGGCGCCAGCUUGGGCUCUCCUGGCGCCCCUGGAAUUCUCGGGUGCCAA: 0.99
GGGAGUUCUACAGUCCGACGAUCGGCAAACCCUGUUCAGGCUGGCUCGUAGGCCUGCCGCUUUGAUGGAGGAGGUAUUGUAAGCUUUCCAUUUUCUAUAAGAAAAAGGAAAAGUUGAGGGGGGGGCAUUAGUGUGGAAUUCUCGGGUGCCAA: 0.634
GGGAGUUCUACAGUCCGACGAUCGCAGAGGUUUUGAUGUAUCCCUGCCGUCUGCAAGAGUCCAGAGGCUGGACUGACAGUAGGAAGUAGAAAUAAGCUAUGUGUAGUCUUGGAAAGUUCCCACCUCACAGGGAUGGAAUUCUCGGGUGCCAA: 1.27
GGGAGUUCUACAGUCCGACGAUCCCACCUCAGGCAGCUGUUACUCAGCCUCCGUUACCUGCUGUAGACUGUCAGCAUCCUCACACAGCGCCUCCAUUACAUGGAAAGGGCUGGCUGCAGUCUCAACCAGGAAUUGGAAUUCUCGGGUGCCAA: 0.308
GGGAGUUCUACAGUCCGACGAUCUUUGGUAGGAAAUUUUUGGGAGAUCUGAUUUUCUUAUCCAAGUUUUGUAAAUAGUUGUUAUUUCUAUAUUUGGAUUGGUGAAAGACCUCAAGUUUAUAUGUAAAGACAUAUGGAAUUCUCGGGUGCCAA: 0.572
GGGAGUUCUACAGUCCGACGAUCAGUUCAAAAGUCAGGUGCUGAGAGAUGGUUUAAAGACAAAUUCAUGAAGGUAUAUUUUGUGUUAUAGUUGUUGAUGAGUUCUUUGGUUUUCUGUAUUUUUCCCCCUCUCUUGGAAUUCUCGGGUGCCAA: 0.399

Study 3
Target: Phosphate system positive regulatory protein PHO4, full length, GST-tagged (PHO4, Saccharomyces cerevisiae, UniProt P07270, residues 1-312)
Method: competition protein-binding microarray
Molecule type: double-stranded DNA, one strand shown
Medium: in vitro
Concentration: 2 µM
Setting: whole 60-bp probe, lowest competitor level
Together with: Cbf1 competitor, 0.05 µM
Direction: higher = stronger binding
Measurement: fluorescence intensity
Construct (chain): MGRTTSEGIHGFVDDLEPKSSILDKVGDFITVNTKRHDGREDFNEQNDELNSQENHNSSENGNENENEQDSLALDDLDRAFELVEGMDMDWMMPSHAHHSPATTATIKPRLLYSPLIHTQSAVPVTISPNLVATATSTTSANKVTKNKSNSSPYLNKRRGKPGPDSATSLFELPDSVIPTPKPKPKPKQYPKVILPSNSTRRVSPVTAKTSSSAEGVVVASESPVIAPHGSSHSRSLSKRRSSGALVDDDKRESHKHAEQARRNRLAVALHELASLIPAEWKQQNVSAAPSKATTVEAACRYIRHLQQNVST
TGCCGGTAATGCAAGCTCGTGCTTTCGCGATCGTAGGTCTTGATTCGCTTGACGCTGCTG: 10800 a.u.
TCGGTAGGGCCATCTCGCGTGCCAGAACAGACAAGAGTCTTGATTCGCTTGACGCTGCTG: 7070 a.u.
CGTCCTAGTGATTGTCACTAAACTTCCATGAGGAAGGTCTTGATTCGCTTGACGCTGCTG: 4130 a.u.
AAAGCAGATGGGGATCGCGTGCTAACAAATTACTCGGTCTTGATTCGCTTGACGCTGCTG: 10100 a.u.
ATTTGACCATTATTCCACGTGTTGAGTTCTCAGAATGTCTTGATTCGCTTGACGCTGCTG: 19200 a.u.
TAACCATTTCTTCCTGTCGTGGGTAGTTCATACCATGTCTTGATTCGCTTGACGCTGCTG: 7170 a.u.
GTCTTGTCTCATTGTGGTGTGGGTGTCCCCACTTCAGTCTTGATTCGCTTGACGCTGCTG: 5940 a.u.
CCATCTCTACTGACTCACATGGCCTGGAACGCAAGTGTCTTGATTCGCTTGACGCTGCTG: 7450 a.u.
AGCGACTAAGAAAGTCTTGTGACGGGATGGTGACAAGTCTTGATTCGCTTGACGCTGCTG: 3670 a.u.
CATGCTGTTTTAGCGCGCGTGATGGGGACATAGATGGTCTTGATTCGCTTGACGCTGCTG: 10100 a.u.
CGGCTACTGAATCTTTACATTACTTGAGCTGAGAAGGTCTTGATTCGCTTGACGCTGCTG: 2900 a.u.
ACTACTAGCCCTCCACACGTTCGAGGCCAGGTTGATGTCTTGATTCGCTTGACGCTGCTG: 11600 a.u.
AAGCATGGTGCCGTTCACATGTCCACCTACTTGAAGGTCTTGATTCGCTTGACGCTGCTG: 6930 a.u.
GCGCTCTTGTTCATGTTCGTGATGGTGTCCAGCCATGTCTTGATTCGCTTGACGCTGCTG: 4690 a.u.
TGTTGCCCGCCACTTAGTGTGACAGTCCCAGTCCCAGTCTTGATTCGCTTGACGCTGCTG: 2770 a.u.
AAGGTTCAAAACAAGCACATGTGTGTTTTGTGACGGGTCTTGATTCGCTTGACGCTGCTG: 12600 a.u.
GGCCCGGTGGGTCCACGCGTGTGTTGCGGTTAGAGCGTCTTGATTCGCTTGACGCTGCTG: 9800 a.u.
CTAACGAAGGTTTGAGCGGTGGGTGACAAGCCAAGTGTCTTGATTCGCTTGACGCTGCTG: 3490 a.u.
CAATTCTTCGGGCGTCACATGACAAATATATAGGGAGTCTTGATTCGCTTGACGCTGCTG: 6600 a.u.
CAGAGGAACGAGATAAACGTGCGATCCCTTCAATAAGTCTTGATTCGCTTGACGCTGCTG: 12800 a.u.
CTTCTGTAAATTTGTAGTGTGGGTGGACGCGCCCCGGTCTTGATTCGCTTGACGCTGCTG: 5290 a.u.
AAATTACTAAGTTGTCACCCAACTTACCCCGTATGAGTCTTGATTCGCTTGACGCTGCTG: 3480 a.u.

Study 4
Target: Sal-like protein 4, full length isoform A (SALL4, Homo sapiens, UniProt Q9UJQ4, residues 1-1053)
Chain of UniProt Q9UJQ4 (whole entry, looked up): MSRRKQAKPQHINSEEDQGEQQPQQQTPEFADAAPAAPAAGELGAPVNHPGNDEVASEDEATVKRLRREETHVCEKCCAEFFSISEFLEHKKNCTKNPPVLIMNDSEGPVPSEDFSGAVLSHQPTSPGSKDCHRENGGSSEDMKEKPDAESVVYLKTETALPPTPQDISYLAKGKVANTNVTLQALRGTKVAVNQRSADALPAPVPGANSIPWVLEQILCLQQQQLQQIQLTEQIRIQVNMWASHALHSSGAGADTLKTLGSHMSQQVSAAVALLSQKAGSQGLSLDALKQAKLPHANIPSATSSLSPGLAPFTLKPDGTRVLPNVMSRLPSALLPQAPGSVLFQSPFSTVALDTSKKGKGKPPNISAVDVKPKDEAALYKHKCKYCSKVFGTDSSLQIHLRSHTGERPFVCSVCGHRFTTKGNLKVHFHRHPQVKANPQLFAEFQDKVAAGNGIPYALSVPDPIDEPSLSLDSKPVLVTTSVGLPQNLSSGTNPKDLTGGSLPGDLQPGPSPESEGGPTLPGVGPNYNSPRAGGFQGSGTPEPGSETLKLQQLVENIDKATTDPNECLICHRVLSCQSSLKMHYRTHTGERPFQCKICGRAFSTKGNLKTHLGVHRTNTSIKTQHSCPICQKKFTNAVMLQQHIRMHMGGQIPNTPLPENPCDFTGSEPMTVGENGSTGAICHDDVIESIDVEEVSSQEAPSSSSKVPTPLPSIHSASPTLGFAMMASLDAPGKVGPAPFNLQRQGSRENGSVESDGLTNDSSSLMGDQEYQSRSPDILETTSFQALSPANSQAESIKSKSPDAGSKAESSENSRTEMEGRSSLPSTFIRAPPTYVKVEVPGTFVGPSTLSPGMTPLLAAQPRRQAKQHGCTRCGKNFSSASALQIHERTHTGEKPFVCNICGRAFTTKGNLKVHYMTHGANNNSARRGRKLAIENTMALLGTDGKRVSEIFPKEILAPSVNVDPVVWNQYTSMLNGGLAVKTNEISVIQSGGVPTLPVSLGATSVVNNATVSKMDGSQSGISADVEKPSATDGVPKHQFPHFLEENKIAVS
Method: universal PBM
Molecule type: double-stranded DNA, one strand shown
Medium: in vitro
Concentration: 600 nM
Setting: 8-mer, flanks averaged, mean of replicates
Direction: higher = stronger binding
Measurement: E-score
AACTTGTC: 0.0882
CGCTAACA: 0.0236
GCAATCCA: 0.0505
AAGGTAAG: 0.152
GATTCCCA: -0.103
CCACGAGC: -0.192
GACTTTTA: 0.109
CCTATCAC: -0.131
GCACATCA: -0.0247
GACGGAGC: -0.266
CTGGCCTA: -0.187
CGCGGGTC: -0.311
ACGGAGCA: -0.103
AGCACCGA: -0.0838
ATTGGCGC: -0.0912
GTTGGTCA: 0.0669
ATCGTGAA: 0.0889
GCCAATCC: -0.18
ATTTGTTG: 0.243
CGAAGTAA: 0.0487
ATAATTAG: 0.384
AGGATCAA: 0.0444
AGTCCGAT: 0.0731
GGATTAAA: 0.107
GCATAGCC: -0.155

Study 5
Target: CCNE1, cyclin fold, Cln2 fusion (human)
Method: yeast growth competition, sequencing
Medium: yeast
Setting: weak parent motif
Relative to: not given
Direction: higher = stronger binding
Measurement: normalised enrichment score
Starting sequence: RB1 docking peptide (human); PKPLKKLRFDIEG
G13H: 0.374
G13R: 0.816
K2A: -0.218
P1Q: 1.12
K5L: -0.0787
F9S: -0.0468
G13V: 0.672
K6R: 0.151
F9T: 0.215
K2L: 0.87
G13T: -0.775
E12K: -0.287
L7V: 0.599
G13D: -0.0653
I11S: 0.472
E12G: 0.743
K5W: 0.248
L7A: 1.08
K5Q: 0.443

Other studies, line by line
PhoQ, residues 284 288 289 292 302 303 TNSAEL — fold induction (PhoP, residues 12 14 15 18 19 AQALL (Escherichia coli, UniProt P23836); Sort-seq, refers to: YFP reporter; E. coli; PhoQ-PhoP variant library, together with: 10 µM Mg2+; relative to: high Mg2+ state, higher = stronger signaling): 1.67
